Published values from different studies.
Each numbered part is a random draw from the data of one study; scales do not carry over between parts. Positions count from the first letter of the parent shown.
UniProt P23443, sequence (whole entry, looked up): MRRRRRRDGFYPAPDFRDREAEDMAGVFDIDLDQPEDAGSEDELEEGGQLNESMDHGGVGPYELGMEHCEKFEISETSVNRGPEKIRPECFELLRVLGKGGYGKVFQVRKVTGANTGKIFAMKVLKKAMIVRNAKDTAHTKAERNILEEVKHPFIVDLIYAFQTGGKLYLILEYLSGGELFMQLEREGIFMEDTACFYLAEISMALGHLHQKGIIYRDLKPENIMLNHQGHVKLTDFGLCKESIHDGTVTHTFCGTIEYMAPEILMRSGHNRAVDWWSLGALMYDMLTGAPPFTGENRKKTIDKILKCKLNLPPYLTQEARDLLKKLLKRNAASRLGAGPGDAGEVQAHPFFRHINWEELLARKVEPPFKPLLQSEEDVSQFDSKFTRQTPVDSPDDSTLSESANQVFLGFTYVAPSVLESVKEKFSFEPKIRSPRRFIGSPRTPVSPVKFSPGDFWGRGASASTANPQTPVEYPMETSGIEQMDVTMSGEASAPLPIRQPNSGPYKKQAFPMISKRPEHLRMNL
UniProt Q9NQU5, sequence (whole entry, looked up): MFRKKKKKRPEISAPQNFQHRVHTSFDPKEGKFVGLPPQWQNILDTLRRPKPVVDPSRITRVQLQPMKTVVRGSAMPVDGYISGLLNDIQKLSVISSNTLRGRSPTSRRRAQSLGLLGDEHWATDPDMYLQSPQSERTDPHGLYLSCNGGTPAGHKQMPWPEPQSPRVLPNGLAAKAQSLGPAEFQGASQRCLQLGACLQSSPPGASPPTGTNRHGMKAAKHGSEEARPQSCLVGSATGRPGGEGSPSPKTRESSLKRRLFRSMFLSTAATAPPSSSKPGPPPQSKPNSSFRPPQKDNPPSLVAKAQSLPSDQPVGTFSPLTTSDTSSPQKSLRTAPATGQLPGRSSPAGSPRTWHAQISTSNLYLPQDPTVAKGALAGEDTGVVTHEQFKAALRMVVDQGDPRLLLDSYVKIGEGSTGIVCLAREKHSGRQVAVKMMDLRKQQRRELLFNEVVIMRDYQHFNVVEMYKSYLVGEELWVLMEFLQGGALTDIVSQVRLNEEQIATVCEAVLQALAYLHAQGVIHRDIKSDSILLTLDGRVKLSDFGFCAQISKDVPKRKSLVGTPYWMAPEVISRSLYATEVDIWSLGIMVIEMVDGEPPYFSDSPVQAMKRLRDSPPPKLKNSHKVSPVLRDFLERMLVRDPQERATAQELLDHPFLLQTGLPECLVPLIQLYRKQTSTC
UniProt Q9UKI8, sequence (whole entry, looked up): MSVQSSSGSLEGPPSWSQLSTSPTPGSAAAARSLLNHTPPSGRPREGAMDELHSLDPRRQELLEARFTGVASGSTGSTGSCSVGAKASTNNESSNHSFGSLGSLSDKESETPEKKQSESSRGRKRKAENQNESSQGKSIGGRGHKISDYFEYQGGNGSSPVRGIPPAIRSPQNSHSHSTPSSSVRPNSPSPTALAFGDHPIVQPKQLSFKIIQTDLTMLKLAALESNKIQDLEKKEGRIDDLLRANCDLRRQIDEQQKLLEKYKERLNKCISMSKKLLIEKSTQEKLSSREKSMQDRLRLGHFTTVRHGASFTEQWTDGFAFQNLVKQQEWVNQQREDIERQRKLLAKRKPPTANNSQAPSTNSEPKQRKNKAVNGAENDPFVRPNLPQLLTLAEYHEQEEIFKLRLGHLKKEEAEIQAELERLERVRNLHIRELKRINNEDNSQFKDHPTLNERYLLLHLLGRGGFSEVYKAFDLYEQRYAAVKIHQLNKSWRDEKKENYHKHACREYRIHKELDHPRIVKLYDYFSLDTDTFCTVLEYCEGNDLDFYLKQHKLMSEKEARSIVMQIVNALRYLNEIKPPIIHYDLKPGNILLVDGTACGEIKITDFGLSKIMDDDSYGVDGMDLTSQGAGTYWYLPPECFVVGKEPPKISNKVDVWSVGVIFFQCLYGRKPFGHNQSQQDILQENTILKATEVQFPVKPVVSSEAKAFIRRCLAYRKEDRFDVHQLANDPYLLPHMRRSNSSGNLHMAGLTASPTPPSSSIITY
UniProt P53778, sequence (whole entry, looked up): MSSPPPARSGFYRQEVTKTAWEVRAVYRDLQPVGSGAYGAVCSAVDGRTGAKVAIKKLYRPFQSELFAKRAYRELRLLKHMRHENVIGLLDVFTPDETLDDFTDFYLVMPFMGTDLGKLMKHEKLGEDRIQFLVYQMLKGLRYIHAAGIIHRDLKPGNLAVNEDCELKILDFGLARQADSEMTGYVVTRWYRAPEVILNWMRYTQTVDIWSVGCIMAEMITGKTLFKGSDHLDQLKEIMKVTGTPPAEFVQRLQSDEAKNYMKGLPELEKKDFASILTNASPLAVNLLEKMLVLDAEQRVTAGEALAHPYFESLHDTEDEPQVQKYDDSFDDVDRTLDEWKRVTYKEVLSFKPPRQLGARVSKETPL
UniProt P48736, sequence (whole entry, looked up): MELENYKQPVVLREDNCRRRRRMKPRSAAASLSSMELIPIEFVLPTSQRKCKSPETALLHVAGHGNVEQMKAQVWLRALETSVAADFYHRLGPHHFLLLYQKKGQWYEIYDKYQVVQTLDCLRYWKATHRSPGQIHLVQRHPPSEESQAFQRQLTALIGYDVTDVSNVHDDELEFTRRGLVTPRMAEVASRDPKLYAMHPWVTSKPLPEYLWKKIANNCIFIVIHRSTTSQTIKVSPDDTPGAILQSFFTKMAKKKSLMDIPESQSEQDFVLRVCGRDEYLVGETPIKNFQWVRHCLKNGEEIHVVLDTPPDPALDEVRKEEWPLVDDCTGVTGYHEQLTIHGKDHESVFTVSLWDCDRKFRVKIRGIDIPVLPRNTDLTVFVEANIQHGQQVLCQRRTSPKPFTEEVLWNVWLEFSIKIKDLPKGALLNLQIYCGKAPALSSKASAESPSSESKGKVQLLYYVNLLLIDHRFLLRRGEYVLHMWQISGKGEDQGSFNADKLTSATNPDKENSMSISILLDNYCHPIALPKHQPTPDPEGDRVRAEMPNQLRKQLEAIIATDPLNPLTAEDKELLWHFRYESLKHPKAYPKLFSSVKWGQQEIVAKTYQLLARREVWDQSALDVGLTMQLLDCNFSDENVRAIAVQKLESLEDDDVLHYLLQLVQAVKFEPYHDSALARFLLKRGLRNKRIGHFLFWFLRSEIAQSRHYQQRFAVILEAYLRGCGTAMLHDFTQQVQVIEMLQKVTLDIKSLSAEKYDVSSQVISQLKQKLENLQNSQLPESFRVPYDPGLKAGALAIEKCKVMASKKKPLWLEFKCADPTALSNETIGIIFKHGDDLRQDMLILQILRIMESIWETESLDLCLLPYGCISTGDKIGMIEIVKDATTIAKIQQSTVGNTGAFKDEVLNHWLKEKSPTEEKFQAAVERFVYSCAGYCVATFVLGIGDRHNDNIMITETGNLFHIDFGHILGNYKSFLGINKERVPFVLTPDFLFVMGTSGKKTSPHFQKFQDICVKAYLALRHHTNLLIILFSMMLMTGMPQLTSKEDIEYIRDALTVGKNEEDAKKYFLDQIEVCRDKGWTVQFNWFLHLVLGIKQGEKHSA

Sample 1
Target: Serine/threonine-protein kinase PLK1 (PLK1, Homo sapiens, UniProt P53350)
UniProt P53350, sequence (whole entry, looked up): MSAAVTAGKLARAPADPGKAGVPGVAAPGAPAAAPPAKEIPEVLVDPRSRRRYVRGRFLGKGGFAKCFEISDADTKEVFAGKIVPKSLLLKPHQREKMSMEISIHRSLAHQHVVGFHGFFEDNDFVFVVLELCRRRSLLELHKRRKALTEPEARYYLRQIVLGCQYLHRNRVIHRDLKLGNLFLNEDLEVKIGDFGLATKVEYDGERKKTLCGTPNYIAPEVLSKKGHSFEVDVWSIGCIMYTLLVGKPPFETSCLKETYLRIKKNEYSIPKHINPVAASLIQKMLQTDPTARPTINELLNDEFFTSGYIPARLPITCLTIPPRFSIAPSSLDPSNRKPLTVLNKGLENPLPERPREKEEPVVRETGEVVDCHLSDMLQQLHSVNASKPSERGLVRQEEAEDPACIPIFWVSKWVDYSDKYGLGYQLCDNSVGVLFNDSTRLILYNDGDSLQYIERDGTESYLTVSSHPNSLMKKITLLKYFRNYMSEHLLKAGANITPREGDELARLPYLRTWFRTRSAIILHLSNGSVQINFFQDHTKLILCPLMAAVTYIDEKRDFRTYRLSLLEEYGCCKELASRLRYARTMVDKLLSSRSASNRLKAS
Observed: enzyme activity
Mode: inhibitor
Tested at: 0.5 µM
Baseline: control
Structure (SMILES) | remaining activity
Oc1ccc(-c2nc(-c3ccncc3)c(-c3ccc(F)cc3)[nH]2)cc1 | 100%
O=C(Nc1cccc(Nc2cc(Nc3cccc(C(F)(F)F)c3)ncn2)c1)C1CC1 | 98.6%
COc1cc2ncnc(Nc3ccc(Oc4ccccc4)cc3)c2cc1OC | 96.4%
COc1ccc(OC)c2c(=S)c3ccccc3[nH]c12 | 93.6%
CCOC(=O)c1c(C)[nH]c(/C=C2\C(=O)Nc3ccccc32)c1C | 107%
CN(C)c1ccc(C=C2C(=O)Nc3ccccc32)cc1 | 103%
CNC(=O)c1cc(Oc2ccc(NC(=O)Nc3ccc(Cl)c(C(F)(F)F)c3)cc2)ccn1 | 98.1%
Cn1sc(=O)n(Cc2ccccc2)c1=O | 97.2%
O=C(CCCc1ccc(-c2ccccc2F)cc1)Nc1ccc(O)cc1 | 95.5%
Nc1ccc2ncnc(NCCc3ccc(Oc4ccccc4)cc3)c2c1 | 91.1%
COc1ccc(CNC(=O)Nc2ncc([N+](=O)[O-])s2)cc1 | 102%
Cc1ccc(Nc2nccc(N(C)c3ccc4c(C)n(C)nc4c3)n2)cc1S(N)(=O)=O | 99.5%
Nc1[nH]nc2nc3ccccc3nc12 | 94.5%
Cn1c2ccccc2c2c3c(c4c5ccccc5n(CCC#N)c4c21)CNC3=O | 103%

Sample 2
Target: CCNA1, cyclin fold, Cln2 fusion (human)
Method: yeast growth competition, sequencing
Matrix: yeast
Setting: weak parent motif
Baseline: not given
Direction: higher = stronger binding
Parent: MASTL docking peptide (human); PMIAKNLMCELDE; partner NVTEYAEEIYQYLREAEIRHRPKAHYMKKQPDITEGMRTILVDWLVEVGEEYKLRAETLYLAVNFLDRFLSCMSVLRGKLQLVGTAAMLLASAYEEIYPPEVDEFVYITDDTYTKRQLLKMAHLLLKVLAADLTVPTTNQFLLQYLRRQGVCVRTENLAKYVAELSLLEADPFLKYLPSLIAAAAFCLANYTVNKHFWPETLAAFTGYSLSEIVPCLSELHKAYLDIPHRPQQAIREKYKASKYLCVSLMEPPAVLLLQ
Variant | normalised enrichment score
E10D | 0.241
M8R | 0.121
C9T | -0.238
M8Q | -0.105
M8P | 0.473
M8G | 0.035
I3P | 0.14
C9P | 0.196

Sample 3
Target: RING finger protein unkempt homolog, zinc fingers 1-6, GST-SBP tag (UNK, Homo sapiens, UniProt Q9C0B0, residues 30-357)
UniProt Q9C0B0, sequence (30-357, looked up): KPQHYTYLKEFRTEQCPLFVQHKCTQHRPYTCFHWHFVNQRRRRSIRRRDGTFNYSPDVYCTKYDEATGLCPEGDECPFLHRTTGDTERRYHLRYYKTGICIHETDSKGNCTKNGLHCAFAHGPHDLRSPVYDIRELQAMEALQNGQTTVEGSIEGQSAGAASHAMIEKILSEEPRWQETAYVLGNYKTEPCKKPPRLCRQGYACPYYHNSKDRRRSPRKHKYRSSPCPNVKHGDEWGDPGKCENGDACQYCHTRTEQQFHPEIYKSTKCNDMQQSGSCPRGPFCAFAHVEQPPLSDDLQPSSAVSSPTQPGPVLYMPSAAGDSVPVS
Method: RNA Bind-n-Seq
Molecule type: RNA
Matrix: in vitro
Tested at: not given
Setting: RNA with constant flanks, human and mouse sites, ends assumed
Baseline: input RNA pool
Direction: higher = stronger binding
Oligonucleotide | bound/input enrichment [ratio]
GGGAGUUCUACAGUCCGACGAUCAAAGCAGACAUUUAUUACAGUCCAUUCCACAAGAGGCAUCCAAACCAUGACCAAGGCAUGUGGCAUUUGGGGGAGGCAGGUUUGGAAGGCACAGAAAGAAGGAAGGAAGGAGCUGCUGCCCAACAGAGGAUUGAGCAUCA | 0.344
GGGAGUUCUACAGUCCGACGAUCAGAUUGUUCUCCAGCAGCCUAGUGGCCAUCGUCAGCCUUAAAGCACCAAGGAAGCUAAAGGUUUGCCACUUUAAGAAGGGAACUGAGAUCUGCAACUACAGCUACUCCAACACGAUUCUGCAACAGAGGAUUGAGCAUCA | 0.0762
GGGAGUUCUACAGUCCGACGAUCUACCUGAUGCAAGGCCCAUGUCUUCCCUACACCAGUAAACUUGUGAAAACCUUAUUGUAUAACUUUAUCAGACAAGAAAAGCCACCUCCGCCCGGAACCCAUGUCUUCCCUCAGCAGUCGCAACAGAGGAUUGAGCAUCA | 0.252
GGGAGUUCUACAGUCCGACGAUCGGCUGGCCCCAGUCCCAAGGAACAAGAGAUGGUCAAGUCGCUAGAGACAUAUCAGGGGACAUUAGGAUUGGGGAAGACACUUGACUGCUAGAAUCAGAGGUUGGACACUAUACAUAAGGACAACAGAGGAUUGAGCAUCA | 0.413
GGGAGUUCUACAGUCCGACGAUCAAACUAGGAUAUGCUGGAAAUACAGAGCCACAGUUUAUCAUCCCAUCAUGUAUUGCCAUUAAAGAGUCUGCAAAAGUGGGUGACCAAGCCCAGAGGAGGGUGAUGAAAGGCGUGGAUGACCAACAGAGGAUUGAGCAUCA | 0.532
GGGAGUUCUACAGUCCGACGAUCCCAAUUUUCUGGAUUGGACUGAUCAGUUCAGUUUGCUGUGUGUUUGCUCAAACAGAUGAAAAUAGAUGUUUAAAAGCAAAUGCCAAAUCAUGUGGAGAAUGUAUACAAGCAGGGCCAAAUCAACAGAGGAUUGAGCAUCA | 0.181
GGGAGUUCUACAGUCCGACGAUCAAGAGUGCAGAUGACUUUAUAGAUAAGCACAUUGCUGAGCUAAUAUUUUACAUGGAAGAGCUUAGAGCACAUGUCAGGAAGUAUGGGCCUGUCAUGCAGAGGUACUACGUGCAAUACCUCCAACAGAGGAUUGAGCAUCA | 0.503
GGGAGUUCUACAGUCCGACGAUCACAAGAGAAGGAUCAUUCCGUGUCACAACAGCCACUGAACAAGCAGAAAGAGAGGAGAUCAUGAAACAAAUGCAAGAUGCCAAGAAAGCUGAAACAGAUAAGAUAGUCGUUGGUUCAUCACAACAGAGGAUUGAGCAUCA | 0.239

Sample 4
Structure (SMILES): CN(C)c1ncnc(-c2ccc3nc(Nc4cc(CN5CCN(C(=O)CC(F)(F)F)CC5)ccn4)[nH]c3c2)c1Cl
Observed: cell-free assay
Method: competition with immobilised ligand
Tested at: 1 µM
target | remaining binding
Ribosomal protein S6 kinase beta-1 (RPS6KB1, Homo sapiens, UniProt P23443) | 92%
Tyrosine-protein kinase CSK (CSK, Homo sapiens, UniProt P41240) | 84%
Mitogen-activated protein kinase 12 (MAPK12, Homo sapiens, UniProt P53778) | 68%
Receptor tyrosine-protein kinase erbB-2 (ERBB2, Homo sapiens, UniProt P04626) | 87%
Serine/threonine-protein kinase PAK 6 (PAK6, Homo sapiens, UniProt Q9NQU5) | 100%
Proto-oncogene tyrosine-protein kinase ROS (ROS1, Homo sapiens, UniProt P08922) | 100%
Mitogen-activated protein kinase 15 (MAPK15, Homo sapiens, UniProt Q8TD08) | 73%
Epidermal growth factor receptor (EGFR, Homo sapiens, UniProt P00533) | 100%
Tyrosine-protein kinase ABL1, non-phosphorylated (ABL1, Homo sapiens, UniProt P00519, Q252H) | 22%
Serine/threonine-protein kinase pim-3 (PIM3, Homo sapiens, UniProt Q86V86) | 100%
Ribosomal protein S6 kinase alpha-1, N-terminal kinase domain (RPS6KA1, Homo sapiens, UniProt Q15418) | 100%
Phosphorylase b kinase gamma catalytic chain, liver/testis isoform (PHKG2, Homo sapiens, UniProt P15735) | 100%
Serine/threonine-protein kinase tousled-like 1 (TLK1, Homo sapiens, UniProt Q9UKI8) | 89%
Macrophage-stimulating protein receptor (MST1R, Homo sapiens, UniProt Q04912) | 98%
Phosphatidylinositol 4,5-bisphosphate 3-kinase catalytic subunit gamma isoform (PIK3CG, Homo sapiens, UniProt P48736) | 100%
Serine/threonine-protein kinase NIM1 (NIM1K, Homo sapiens, UniProt Q8IY84) | 61%

For quick reference, copied from above (sample 1):
Structure (SMILES) | remaining activity
COc1cc2ncnc(Nc3ccc(Oc4ccccc4)cc3)c2cc1OC | 96.4%
COc1ccc(OC)c2c(=S)c3ccccc3[nH]c12 | 93.6%
CCOC(=O)c1c(C)[nH]c(/C=C2\C(=O)Nc3ccccc32)c1C | 107%
CN(C)c1ccc(C=C2C(=O)Nc3ccccc32)cc1 | 103%
